# Measurements from different studies.
# Several values in a cell are separate wells, animals, samples, runs or records. ± marks the error that the study gave.
# uncharacterized protein: uncharacterized protein (Aptenodytes forsteri, UniProt A0A087QWN2)
# aac: Aminoglycoside 2'-N-acetyltransferase (aac, Mycobacterium tuberculosis, UniProt P9WQG9)
# OPRK1: Kappa-type opioid receptor (OPRK1, Homo sapiens, UniProt P41145)
# Slc6a2: Transporter (Slc6a2, Rattus norvegicus, UniProt Q63380)
# icl: Isocitrate lyase (icl, Mycobacterium tuberculosis, UniProt P9WKK7)
Compound,target,assay,test system,setting,scale,endpoint,value
COc1ccc2c(c1)[nH]c1c(C)nccc12,luciferase,,,up to 20 µM,,luciferase activity,no effect
Brc1ccc2c(c1)C(c1ccccn1)=NCc1c(-c3cnco3)ncn1-2,"GABA-A receptor benzodiazepine site, rat",radioligand binding,brain homogenate,"10 µM, with: [3H]flunitrazepam",,inhibition,93.4%
C[C@]12CCC(=O)C=C1CC[C@@H]1[C@@H]2CC[C@]2(C)C(=O)CC[C@@H]12,uncharacterized protein,,,Aptenodytes forsteri,,kon,3.5e+07 ± 9e+13 M⁻¹ s⁻¹
Clc1ccc(COc2ccccc2CNCc2cccnc2)cc1,aac,"neomycin acetylation, inhibitor",,with: neomycin,,highest concentration without inhibition,> 200 µM
COc1ccsc1CNCC[C@@]1(c2ccccn2)CCOC2(CCCC2)C1,"Oprm1 (Mus musculus, UniProt P42866)","GIRK current, perforated patch clamp",AtT20 cells,"80% receptor knockdown, unit not given",reference: somatostatin response,Emax,0.33 ± 0.01
CCCCCCCC[C@H]1O[C@H]1C/C=C/C=C/[C@H](O)CC(=O)NC1=C[C@](C)(CC)OC1=O,"Na(+)-translocating NADH-quinone reductase subunit B, whole Na+-NQR complex (nqrB, Vibrio cholerae serotype O1, UniProt Q9KPS2)",ITC,,"concentration not given, 20 °C, wild type",,binding stoichiometry,0.57 ± 0.01
Cl.NC(=O)c1ccc(C(=O)N[C@H]2CC[C@@]3(O)[C@H]4Cc5ccc(O)c6c5[C@@]3(CCN4CC3CC3)[C@H]2O6)s1,OPRK1,radioligand binding,CHO membranes,,reference: Ki µ over Ki κ,selectivity ratio,13.6
CCCC(NC)C(=O)c1ccc2c(c1)OCO2 (racemic),Slc6a2,"substrate release, releaser",rat brain synaptosomes,with: [3H]MPP+ 9 nM,,EC50,inactive
CN[C@]1(c2ccccc2Cl)CCCCC1=O,OPRK1,"radioligand binding, agonist, radioligand displacement",,30 µM,,inhibition,57%
Cl.N#Cc1ccc(C(=O)N[C@H]2CC[C@@]3(O)[C@H]4Cc5ccc(O)c6c5[C@@]3(CCN4CC3CC3)[C@H]2O6)s1,OPRK1,radioligand binding,CHO membranes,,reference: Ki µ over Ki κ,selectivity ratio,5.23
CNC(C)C(=O)c1ccc2c(c1)OCO2 (centres unmarked),Slc6a2,"substrate release, releaser",rat brain synaptosomes,,,maximal release,100%
Clc1cccc(COc2ccccc2CNCc2cccnc2)c1,aac,"neomycin acetylation, inhibitor",,with: neomycin,,highest concentration without inhibition,> 200 µM
Oc1ccc2c3c1O[C@H]1[C@@H](O)CC[C@@]4(O)[C@@H](C2)N(CC2CCC2)CC[C@]314,"Probable G-protein coupled receptor 160 (GPR160, Homo sapiens, UniProt Q9UJ42)","β-arrestin recruitment, TANGO luminescence, item: GPR160",,concentration not given,reference: basal luminescence,log2 fold change,0.489
CC(=O)Nc1ccc(C(=O)N[C@H]2CC[C@@]3(O)[C@H]4Cc5ccc(O)c6c5[C@@]3(CCN4CC3CC3)[C@H]2O6)s1.Cl,OPRK1,radioligand binding,CHO membranes,,reference: Ki µ over Ki κ,selectivity ratio,9.54
C[C@]12CC[C@H]3[C@@H](CCC4=CC(=O)CC[C@@]43CO)[C@@H]1CCC2=O,uncharacterized protein,,,Aptenodytes forsteri,,kon,5.5e+07 ± 1.6e+14 M⁻¹ s⁻¹
O=C(O)C1=CC=C(COc2ccc3ccc(=O)oc3c2)C1,icl,"thermal shift, SYPRO Orange",,"1 mM, pH 7.5, 1 mM MgCl2, protein 20 µM",,delta Tm,> 0.5 °C
O=P(O)(O)O[C@H]1O[C@H](CO)[C@H](O)[C@H](O)[C@H]1O,lacto-N-biose phosphorylase,substrate,,,,Km,680 ± 160 µM
COc1ccc(CC(=O)Nc2ccc(O)cc2C(=O)O)cc1,icl,"thermal shift, SYPRO Orange",,"1 mM, pH 7.5, 1 mM MgCl2, protein 20 µM",,delta Tm,> 0.5 °C
C[C@]12CC[C@H](O)CC1=CC[C@@H]1[C@@H]2CC[C@]2(C)C(=O)CC[C@@H]12,"SULT2A1 (Homo sapiens, UniProt Q06520)","substrate, HPLC",,50 µM,,sulfonation rate,88 nmol/min/mg and 62 nmol/min/mg and 70 nmol/min/mg and 78 nmol/min/mg and 83 nmol/min/mg
O=C(N/N=C/c1cc2c(s1)CCCC2)c1cccs1,"1-deoxy-D-xylulose-5-phosphate synthase (Mycobacterium tuberculosis, UniProt P9WNS3)",inhibitor,,concentration not given,,remaining activity,30%
COc1ccc(O)c(C(=O)CC(=O)c2ccccc2)c1,icl,"thermal shift, SYPRO Orange",,"1 mM, pH 7.5, 1 mM MgCl2, protein 20 µM",,delta Tm,> 0.5 °C
CC(=O)S(=O)(=O)c1ccc(C(=O)N[C@H]2CC[C@@]3(O)[C@H]4Cc5ccc(O)c6c5[C@@]3(CCN4CC3CC3)[C@H]2O6)s1.Cl,OPRK1,radioligand binding,CHO membranes,,reference: Ki µ over Ki κ,selectivity ratio,4.1
NC(CC(=O)O)c1cccnc1 (centres unmarked),icl,"thermal shift, SYPRO Orange",,"1 mM, pH 7.5, 1 mM MgCl2, protein 20 µM",,delta Tm,> 0.5 °C
c1ccc2cc([C@]34CNC[C@H]3C4)ccc2c1,"SLC6A3 (Homo sapiens, UniProt Q01959)","inhibitor, [3H]dopamine uptake",,10 µM,reference: no inhibitor,dopamine uptake,3.39% and 2.01% and 2.2%
COc1ccc(C(=O)N[C@H]2CC[C@@]3(O)[C@H]4Cc5ccc(O)c6c5[C@@]3(CCN4CC3CC3)[C@H]2O6)s1.Cl,OPRK1,radioligand binding,CHO membranes,,reference: Ki µ over Ki κ,selectivity ratio,5.45
Nc1ccc([C@H](O)[C@@H](N)CO)cc1,icl,"thermal shift, SYPRO Orange",,"1 mM, pH 7.5, 1 mM MgCl2, protein 20 µM",,delta Tm,> 0.5 °C
C[C@]12C=CC3=C4CCC(=O)C=C4CC[C@H]3[C@@H]1CC[C@@H]2O,"WD repeat-containing protein 55 (WDR55, Homo sapiens, UniProt Q9H6Y2)","binding, affinity selection mass spectrometry",,"100 nM, pooled screen",reference: other proteins,fold change,60.3
Clc1ccc(COc2ccccc2CNCc2ccncc2)cc1,aac,"neomycin acetylation, inhibitor",,with: neomycin,,highest concentration without inhibition,> 200 µM
COc1ccc(OCC(=O)c2c(O)cc(O)cc2O)cc1,icl,"thermal shift, SYPRO Orange",,"1 mM, pH 7.5, 1 mM MgCl2, protein 20 µM",,delta Tm,> 0.5 °C

# For quick reference, copied from above:
Compound,target,assay,test system,setting,scale,endpoint,value
NC(CC(=O)O)c1cccnc1 (centres unmarked),icl,"thermal shift, SYPRO Orange",,"1 mM, pH 7.5, 1 mM MgCl2, protein 20 µM",,delta Tm,> 0.5 °C
Cl.N#Cc1ccc(C(=O)N[C@H]2CC[C@@]3(O)[C@H]4Cc5ccc(O)c6c5[C@@]3(CCN4CC3CC3)[C@H]2O6)s1,OPRK1,radioligand binding,CHO membranes,,reference: Ki µ over Ki κ,selectivity ratio,5.23
CC(=O)S(=O)(=O)c1ccc(C(=O)N[C@H]2CC[C@@]3(O)[C@H]4Cc5ccc(O)c6c5[C@@]3(CCN4CC3CC3)[C@H]2O6)s1.Cl,OPRK1,radioligand binding,CHO membranes,,reference: Ki µ over Ki κ,selectivity ratio,4.1
